Assay results gathered from unrelated publications.
Protocols differ between the studies behind these lines.
Organism: Pseudomonas aeruginosa

CC(C)C[C@H](NC(=O)[C@H](CC(C)C)NC(=O)[C@H](CCCCN)NC(=O)[C@@H]1CCCN1C(=O)[C@H](CC(C)C)NC(=O)[C@H](CC(C)C)NC(=O)[C@H](CCCCN)NC(=O)[C@H](CC(C)C)NC(=O)[C@H](CC(C)C)NC(=O)[C@H](CO)NC(=O)CNC(=O)[C@H](CC(C)C)NC(=O)[C@@H](N)CC(C)C)C(N)=O  MIC (broth microdilution): > 100 µM
CCCCCCCC[C@@H]1NC(=O)[C@@H](Cc2ccccc2)NC(=O)[C@H](CCN)NC(=O)[C@@H](NC(=O)[C@H](CCN)NC(=O)[C@@H](NC(=O)[C@H](CCN)NC(=O)c2ccc(-c3ccccc3)cc2)[C@@H](C)O)CCNC(=O)[C@H]([C@@H](C)O)NC(=O)[C@H](CCN)NC(=O)[C@H](CCN)NC1=O  MIC (broth microdilution; FADDI-PA070, polymyxin resistant, CAMHB; 18 h, 37 °C): 2 µg/mL
CC(C)C[C@@H]1NC(=O)[C@@H](CC(C)C)NC(=O)[C@H](CCN)NC(=O)[C@@H](NC(=O)[C@H](CCN)NC(=O)[C@@H](N)[C@@H](C)O)CCNC(=O)[C@H]([C@@H](C)O)NC(=O)[C@H](CCN)NC(=O)[C@H](CCN)NC1=O  MIC (broth microdilution; NDM1, NRZ 08418, CAMHB with polysorbate-80; 16 h, 37 °C, together with: 0.002% polysorbate-80): > 64 µg/mL
CC(=O)OCc1cc(-c2nc3ccccc3n(-c3ccc([N+](=O)[O-])cc3[N+](=O)[O-])c2=O)nn1-c1ccccc1  MIC (microbial growth; MDR): 125 µg/mL
CC[C@H](C)[C@H](NC(=O)[C@H](CC(C)C)NC(=O)[C@H](CO)NC(=O)[C@H](CC(C)C)NC(=O)[C@@H](N)CCSC)C(=O)N[C@@H](Cc1ccccc1)C(=O)N[C@@H](CC(C)C)C(=O)N[C@@H](Cc1c[nH]cn1)C(=O)N[C@@H](CCCNC(=N)N)C(=O)N[C@@H](CC(C)C)C(=O)N[C@@H](CCCCN)C(=O)N[C@@H](CO)C(=O)N[C@@H](CCSC)C(=O)N[C@@H](CCCNC(=N)N)C(=O)N[C@@H](CCCCN)C(=O)N[C@@H](CCCNC(=N)N)C(=O)N[C@@H](CC(C)C)C(=O)N[C@@H](CC(=O)O)C(=O)N[C@@H](CCCNC(=N)N)C(=O)N[C@@H](CCCCN)C(=O)N[C@@H](CC(C)C)C(=O)N[C@@H](CCCNC(=N)N)C(=O)N[C@@H](CC(C)C)C(=O)N[C@@H](Cc1c[nH]c2ccccc12)C(=O)N[C@@H](Cc1c[nH]cn1)C(=O)N[C@@H](CCCNC(=N)N)C(=O)N[C@@H](CCCCN)C(=O)N[C@@H](CC(N)=O)C(=O)N[C@@H](Cc1ccc(O)cc1)C(=O)N1CCC[C@H]1C(=O)O  MIC (ATCC 27853; together with: 1 mM MgCl2): 80 µg/mL
C[C@H](N)[C@@H](CCCCCCCCCCCCCCC(=O)CCCCCCC[C@@H](O)[C@@H](C)N)O[C@@H]1O[C@H](CO)[C@H](O)[C@H](O)[C@H]1O  MIC (microbial growth, resazurin; ATCC27853; 6 h): 6.47 µM
CC(C)C[C@@H]1NC(=O)CSC[C@@H]2NC(=O)[C@H](CCCCN)NC(=O)[C@H](CC(C)C)NC(=O)[C@H](CCCCN)NC(=O)[C@H](CCCCNC(=O)[C@H](CC(C)C)NC1=O)NC(=O)[C@H](CC(C)C)NC(=O)[C@H](CC(C)C)NC(=O)CSC[C@@H](C(=O)N[C@@H](CCCCN)C(N)=O)NC(=O)[C@H](CC(C)C)NC(=O)[C@H](CCCCN)NC(=O)[C@H](CCCCN)NC2=O  MIC (PAO1; 18 h): > 256 µg/mL
CC[C@H](C)[C@H](NC(=O)[C@H](Cc1c[nH]cn1)NC(=O)[C@H](CCCCNC(=O)[C@@H](NC(=O)[C@H](CCCCN)NC(=O)CSC[C@H](NC(=O)[C@H](Cc1ccccc1)NC(=O)[C@H](CCCCNC(=O)[C@H](CC(C)C)NC(=O)[C@H](CCCCN)NC(=O)[C@H](CCCCN)NC(=O)CCS[C@@H]1O[C@H](CO)[C@H](O)[C@H](O)[C@H]1O)NC(=O)[C@H](CC(C)C)NC(=O)[C@H](CCCCN)NC(=O)[C@H](CCCCN)NC(=O)C[C@@H]1O[C@@H](C)[C@@H](O)[C@@H](O)[C@@H]1O)C(N)=O)[C@@H](C)CC)NC(=O)[C@@H](NC(=O)[C@H](CCCCN)NC(=O)CSC[C@H](NC(=O)[C@H](Cc1ccccc1)NC(=O)[C@H](CCCCNC(=O)[C@H](CC(C)C)NC(=O)[C@H](CCCCN)NC(=O)[C@H](CCCCN)NC(=O)CCS[C@@H]1O[C@H](CO)[C@H](O)[C@H](O)[C@H]1O)NC(=O)[C@H](CC(C)C)NC(=O)[C@H](CCCCN)NC(=O)[C@H](CCCCN)NC(=O)C[C@@H]1O[C@@H](C)[C@@H](O)[C@@H](O)[C@@H]1O)C(N)=O)[C@@H](C)CC)C(N)=O  MIC (PAO1, LB medium): > 64 µM
CC[C@H](C)[C@H](NC(=O)CNC(=O)[C@@H](NC(=O)[C@@H](N)Cc1ccccc1)[C@@H](C)CC)C(=O)N[C@@H](CCSC)C(=O)N[C@@H](C)C(=O)N[C@H](C(=O)N[C@@H](CC(C)C)C(=O)N[C@@H](C)C(=O)N[C@@H](CO)C(=O)N[C@@H](CC(C)C)C(=O)N[C@H](C(=O)N[C@H](C(=O)N1CCC[C@H]1C(=O)N[C@@H](CCCCN)C(=O)N[C@@H](CC(C)C)C(=O)N[C@H](C(=O)N[C@@H](CCC(=O)O)C(=O)N[C@@H](CCCCN)C(=O)N[C@H](C(=O)N[C@@H](CCCCN)C(=O)N[C@@H](CCC(N)=O)C(=O)N[C@@H](C)C(=O)N[C@@H](CCCNC(=N)N)C(N)=O)[C@@H](C)CC)[C@@H](C)CC)[C@@H](C)CC)C(C)C)[C@@H](C)O  MIC (broth microdilution; ATCC 27853): > 50 µM
COc1cc2c(=O)c(C(=O)NCCNCCO)cn(Cc3ccccc3)c2cc1OCc1cccc(Cl)c1  MIC (ATCC 27853; ≥80% growth inhibition): < 0.25 µg/mL

Some of these lines once more:
CC(C)C[C@H](NC(=O)[C@H](CC(C)C)NC(=O)[C@H](CCCCN)NC(=O)[C@@H]1CCCN1C(=O)[C@H](CC(C)C)NC(=O)[C@H](CC(C)C)NC(=O)[C@H](CCCCN)NC(=O)[C@H](CC(C)C)NC(=O)[C@H](CC(C)C)NC(=O)[C@H](CO)NC(=O)CNC(=O)[C@H](CC(C)C)NC(=O)[C@@H](N)CC(C)C)C(N)=O  MIC (broth microdilution): > 100 µM
